Published values from different studies.
Every numbered part comes from another study and shows a few of its results, in no order.

Series 1 — technique: protein binding microarray; form: double-stranded DNA, one strand shown; medium: in vitro; concentration: not given; reference: not given; reading: higher = stronger binding; measurement: E-score
Target: Histone acetyltransferase KAT6A, winged helix 1, GST fusion (KAT6A, Homo sapiens, UniProt Q92794, residues 1-85)
Setting: 8-mer, flanks averaged, mean of 2 arrays, mostly near background
Construct (chain): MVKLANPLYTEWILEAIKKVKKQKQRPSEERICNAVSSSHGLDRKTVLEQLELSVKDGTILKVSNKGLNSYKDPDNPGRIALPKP
Sequence = ATCGACCG; result = 0.164
Sequence = AATGGTTC; result = 0.00359
Sequence = AGACACCG; result = -0.0526
Sequence = CTGTACAC; result = -0.0262
Sequence = CAAATAGA; result = -0.214
Sequence = AGGCAACA; result = -0.188
Sequence = AGCTTCAC; result = -0.184
Sequence = CCACAATA; result = -0.114
Sequence = GCCGGAGA; result = 0.164
Sequence = AATTTGAG; result = -0.187
Sequence = GAAAACGA; result = -0.0811
Sequence = TAGATCGA; result = -0.183
Sequence = AGGGCGTA; result = 0.158
Sequence = AAATATTA; result = -0.0301
Sequence = ACACGACT; result = -0.0071
Sequence = GCAACCAC; result = -0.199
Sequence = CGGTCACA; result = 0.149
Sequence = ATCCAAGA; result = -0.269
Sequence = GAAGTACA; result = -0.116
Sequence = ACGTTCAG; result = -0.144
Sequence = GAAGCGCC; result = 0.284

Series 2 — technique: RNA Bind-n-Seq; form: RNA; medium: in vitro; concentration: 365 nM; reference: no-protein control; reading: higher = stronger binding; measurement: RBNS enrichment (R)
Target: RNA binding protein fox-1 homolog 2, RRM domain, GST-SBP tag (RBFOX2, Homo sapiens, UniProt O43251-10, residues 100-194)
Setting: natural RNA segment, single round, ends assumed
All sequences stand within: GGGAGUUCUACAGUCCGACGAUC … UGGAAUUCUCGGGUGCCAA
Construct (chain): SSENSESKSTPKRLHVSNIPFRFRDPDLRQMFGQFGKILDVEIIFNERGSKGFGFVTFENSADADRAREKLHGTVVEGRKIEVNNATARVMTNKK
Sequence = AAGGUCUGUGGUGUCUCUGUCCGAUGGAGCAGUCUUAAAGCUUUAGUCAGCACAGGCCUAGCAAGGCCCUGACAGCCACAUCGACUGAAGAUUGUCAAGGCGAUAGAAAA; result = 0.293
Sequence = UGCCUGUGACUCUUUGCACACUCUGUACUGAGUUUGGUGCUCCACCCAUUCACUGGGGUCAGGUGGCAGUUGACAUCUUGGUUAUAAGUAUGCAUGCAGGUAACAAGAGU; result = 6.33
Sequence = UCAUCGGGCUGGGCAGGAAGCGUCCCUGAUUGCGUGCUCCACUUCUCCCUCUCAGGAAGCCCAGUUUCAUCCUUAGUACCCCCCCUCGUGCCCGCUGUCGGCUGGUUAUA; result = 0.568
Sequence = GUUUUCCAGGGAGGGAAUGAUAUAAUUUUCAUGACAAUGUCAUGUGCUGAUAGAAUUUCUCCAUUGAUGAACCUCUAGUAUGUGUGUAUACUUUAUUUACCCAUGUGUAU; result = 0.634
Sequence = UGUUCCUUUCACAAGCAAGCCUUAAAAAAAGAGAAAAAGAAAAAAAAAAGACAACUUCCUUUCUCUUCAGACCCCCACACCCACUUUUCUUAGCAGACGGCAGUCAAUCC; result = 0.504
Sequence = UGUGCACCAAUUGUCAAAACCACUGAGUGCUGUGCUGCCUAUGUGAGAAGAAAGUUACUGACUUGUGACCUAUGCUUGGCCCUGUGCCUAGUCACCUGUCACCAGGGAUU; result = 0.511
Sequence = GCCCCGGGUAUGAACCGCAGAACUCUGGAGAUGGCGUUCAGAAUUCUGAGUUCAAAACCCAUAGCCCUGAGUUUGAAACUCAAAGUUCCAAAUUCCAGGAAGGUGCAGAG; result = 0.347
Sequence = ACUUGAACCAGAUUAUAGAUUUAAAAGUAUAUGACAUGUAUUUUGUAUUUAAAACUAGAAUAGCCAGUAUUUAUGUUUUUUAUAAAACUGUGCAAUACGAAUUAUGCAAU; result = 0.786
Sequence = GGCUCUGGUUCAAUAAGCAGUCACCCAAAGUAAAGACUCUAUCUUGAAAGGCUUUUGGUGAAAAUGAAGGGAUUUCAUUUGAAAUUACAGCAUGAUGAAUUUUGCAUGGG; result = 27.3
Sequence = UGAAGUGUUUCAAAUGUCUGUCAGUUCUCUUGCACGGUCCUAAUAAAAGUGAAAGCCCUCUGUCACGAAACAACAUGGGUGGUCCAAAGAUCAGGGGCAAGACAACUCAG; result = 0.506
Sequence = CUGCUUAGAAGCAUGAGAAGCAUGAGAAUGGUAAUGUGUGCUAAACCUAUGUUUAACCAAUCUUUGCACCAAAGGACUUUUUCACCAAUUUAUUUUGUUAUUCUUCCAAA; result = 10.7
Sequence = AAUCAUGCCAGCUAAUCCUGUCCGUCACUGCCUGUCAGGUUGUUCCUAUAUACCUUCUGUAAAUAACUUUUUUUGAGAAGGAAAUAAAAUCAGCUGGAACUGAACCCUAA; result = 0.339

Series 3 — technique: universal PBM; form: double-stranded DNA, one strand shown; medium: in vitro; concentration: not given; reading: higher = stronger binding; measurement: E-score
Target: Sal-like protein 4, full length isoform B (SALL4, Homo sapiens, UniProt Q9UJQ4-2, residues 1-616)
Setting: 8-mer, flanks averaged, mean of replicates
Sequence = AGTCAAAA; result = 0.095
Sequence = ATTATGCG; result = 0.264
Sequence = CCTCAAAG; result = -0.0623
Sequence = AATACCGA; result = 0.135
Sequence = GACAGCAC; result = -0.138
Sequence = ATAAGGTA; result = 0.244
Sequence = GGTGCACA; result = -0.171
Sequence = CGCTTAAA; result = 0.0139
Sequence = CTCATCGA; result = -0.0294
Sequence = CGTCTGTA; result = 0.111
Sequence = ACGTCTGC; result = -0.196
Sequence = AGATGGCT; result = 0.0486
Sequence = GCTCTGAA; result = -0.0628
Sequence = CACTTAGG; result = -0.00526
Sequence = AGCGGCAT; result = -0.125
Sequence = TAACGTTA; result = 0.248
Sequence = CAGGTCCA; result = -0.131
Sequence = ATAATTAG; result = 0.361

Series 4 — technique: protein-binding microarray; form: double-stranded DNA, one strand shown; medium: in vitro; concentration: 2200 nM top; setting: 60-bp whole probe; together with: salmon DNA 0.4 mg/ml; reference: random background probes; reading: higher = stronger binding; measurement: fitted relative affinity; all sequences stand within: GCCTAGCAC … GTCTTGATTCGCTTGACGCTGCTG
Target: Interferon regulatory factor 7, full length, phosphomimetic (IRF7, Homo sapiens, UniProt Q92985, residues 1-503, S471D/S472D/S475D/S476D/S477D/S483D/S484D/S487D)
Target sequence (chain): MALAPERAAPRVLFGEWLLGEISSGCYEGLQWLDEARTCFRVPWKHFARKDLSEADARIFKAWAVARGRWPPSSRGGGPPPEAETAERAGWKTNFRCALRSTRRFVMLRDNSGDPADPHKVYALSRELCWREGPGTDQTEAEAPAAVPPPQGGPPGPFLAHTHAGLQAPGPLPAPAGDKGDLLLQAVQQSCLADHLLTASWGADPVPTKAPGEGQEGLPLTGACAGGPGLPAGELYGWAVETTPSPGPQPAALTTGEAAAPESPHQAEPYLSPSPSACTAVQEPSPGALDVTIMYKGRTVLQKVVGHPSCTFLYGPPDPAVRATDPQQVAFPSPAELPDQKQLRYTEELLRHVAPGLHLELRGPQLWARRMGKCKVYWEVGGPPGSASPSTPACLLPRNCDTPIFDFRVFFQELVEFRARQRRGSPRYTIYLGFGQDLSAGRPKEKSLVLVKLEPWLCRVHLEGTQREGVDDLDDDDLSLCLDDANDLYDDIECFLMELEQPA
Sequence = TTAGGACTGGGGTATCGGCTAGTGCTA; result = -0.615 z-score
Sequence = TTAGTTATCAGTCTCGATTAGTGCTAG; result = 0.857 z-score
Sequence = TTTGGACTGCTACTGCTTTAGTGCTAG; result = 0.262 z-score
Sequence = GTAGGACTGGACTTTCGGTTAGTGCTA; result = 4.62 z-score
Sequence = GTTGTTTTAAATTCTAATTAGTGCTAG; result = 0.641 z-score
Sequence = CGGCCTCTAGGTTTTCTGAAGTGCTAG; result = -0.387 z-score
Sequence = TAGTTTTCAATTTTTGCATCGTGCTAG; result = 2.29 z-score
Sequence = TTAGGTTTCGCTATCGGTTAGTGCTAG; result = 5.81 z-score
Sequence = GACGATATCACTTTCGAGACGTGCTAG; result = 5.03 z-score
Sequence = GACGGTATCAGTTTCGAGACGTGCTAG; result = 3.57 z-score
Sequence = CTTTTTCCCTATTATATATATGTGCTA; result = 3.1 z-score
Sequence = GAAGGACTGGACACTGGGGACGTGCTA; result = -0.954 z-score
Sequence = GAAGATTTCGGGTATCGAGACGTGCTA; result = 2.41 z-score
Sequence = GACGGTCTCCTACTGATGACGTGCTAG; result = 0.261 z-score
Sequence = GGTCTTCTGGGCTGTTTGGTCGTGCTA; result = 0.00602 z-score
Sequence = TCTTCTGGTGTGTCTGAAGAGTGCTAG; result = 0.828 z-score
Sequence = GTAGGTTCCGGTTTCGGTTAGTGCTAG; result = 8.83 z-score
Sequence = GACGGACTTCTTTTCCTGACGTGCTAG; result = 0.687 z-score
Sequence = TTAGGTCACGGACTGGGTTAGTGCTAG; result = -0.56 z-score
Sequence = GACCATTTCAGTATCGAGACGTGCTAG; result = 1.22 z-score
Sequence = GACGATATGAGTCTCGAGACGTGCTAG; result = 0.39 z-score
Sequence = GCCGGTTTCCTTCTCCTGACGTGCTAG; result = 4 z-score
Sequence = GAAGATATCAGTCTCGAGACGTGCTAG; result = -0.105 z-score
Sequence = TCAATTTACATTTTAGTACTGTGCTAG; result = 1.65 z-score

For quick reference, copied from above (series 2):
Sequence = UGAAGUGUUUCAAAUGUCUGUCAGUUCUCUUGCACGGUCCUAAUAAAAGUGAAAGCCCUCUGUCACGAAACAACAUGGGUGGUCCAAAGAUCAGGGGCAAGACAACUCAG; result = 0.506
Sequence = UGUGCACCAAUUGUCAAAACCACUGAGUGCUGUGCUGCCUAUGUGAGAAGAAAGUUACUGACUUGUGACCUAUGCUUGGCCCUGUGCCUAGUCACCUGUCACCAGGGAUU; result = 0.511
Sequence = AAGGUCUGUGGUGUCUCUGUCCGAUGGAGCAGUCUUAAAGCUUUAGUCAGCACAGGCCUAGCAAGGCCCUGACAGCCACAUCGACUGAAGAUUGUCAAGGCGAUAGAAAA; result = 0.293
Sequence = UGUUCCUUUCACAAGCAAGCCUUAAAAAAAGAGAAAAAGAAAAAAAAAAGACAACUUCCUUUCUCUUCAGACCCCCACACCCACUUUUCUUAGCAGACGGCAGUCAAUCC; result = 0.504
Sequence = ACUUGAACCAGAUUAUAGAUUUAAAAGUAUAUGACAUGUAUUUUGUAUUUAAAACUAGAAUAGCCAGUAUUUAUGUUUUUUAUAAAACUGUGCAAUACGAAUUAUGCAAU; result = 0.786
